Measurements pooled from the literature.
Each line is one published result; not all experiments were run side by side. Numbers after ± are the reported error. Where no end group is shown, it is not given here. [ ]: non-standard residue; d: D form.
T1: NR1I2/RXRA (Homo sapiens); chain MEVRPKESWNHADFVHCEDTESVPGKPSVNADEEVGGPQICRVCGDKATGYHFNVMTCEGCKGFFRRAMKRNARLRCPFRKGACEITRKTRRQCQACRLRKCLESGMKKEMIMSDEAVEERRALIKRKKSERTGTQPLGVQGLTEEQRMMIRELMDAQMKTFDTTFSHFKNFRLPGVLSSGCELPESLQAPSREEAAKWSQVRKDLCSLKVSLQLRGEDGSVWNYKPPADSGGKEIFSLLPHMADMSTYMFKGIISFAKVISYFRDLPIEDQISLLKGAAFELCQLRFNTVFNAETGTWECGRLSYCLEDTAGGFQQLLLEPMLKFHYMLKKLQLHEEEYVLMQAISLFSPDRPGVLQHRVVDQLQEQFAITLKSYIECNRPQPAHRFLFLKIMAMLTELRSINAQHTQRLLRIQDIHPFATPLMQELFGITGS; chain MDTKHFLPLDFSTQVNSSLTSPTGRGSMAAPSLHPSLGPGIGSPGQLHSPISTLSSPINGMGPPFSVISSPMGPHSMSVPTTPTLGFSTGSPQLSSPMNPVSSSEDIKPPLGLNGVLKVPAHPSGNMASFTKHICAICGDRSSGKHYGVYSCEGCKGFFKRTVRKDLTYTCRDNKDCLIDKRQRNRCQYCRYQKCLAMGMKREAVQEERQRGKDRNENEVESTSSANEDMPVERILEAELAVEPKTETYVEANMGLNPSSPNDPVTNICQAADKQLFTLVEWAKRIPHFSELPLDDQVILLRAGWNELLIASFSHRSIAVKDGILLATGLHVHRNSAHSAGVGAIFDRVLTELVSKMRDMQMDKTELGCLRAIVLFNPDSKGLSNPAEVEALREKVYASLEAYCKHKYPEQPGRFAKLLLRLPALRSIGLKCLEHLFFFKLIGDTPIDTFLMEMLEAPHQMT
B1: UGT1A9 (Homo sapiens, UniProt O60656); chain GKLLVVPMDGSHWFTMRSVVEKLILRGHEVVVVMPEVSWQLGRSLNCTVKTYSTSYTLEDLDREFKAFAHAQWKAQVRSIYSLLMGSYNDIFDLFFSNCRSLFKDKKLVEYLKESSFDAVFLDPFDNCGLIVAKYFSLPSVVFARGILCHYLEEGAQCPAPLSYVPRILLGFSDAMTFKERVRNHIMHLEEHLLCHRFFKNALEIASEILQTPVTEYDLYSHTSIWLLRTDFVLDYPKPVMPNMIFIGGINCHQGKPLPMEFEAYINASGEHGIVVFSLGSMVSEIPEKKAMAIADALGKIPQTVLWRYTGTRPSNLANNTILVKWLPQNDLLGHPMTRAFITHAGSHGVYESICNGVPMVMMPLFGDQMDNAKRMETKGAGVTLNVLEMTSEDLENALKAVINDKSYKENIMRLSSLHKDRPVEPLDLAVFWVEFVMRHKGAPHLRPAAHDLTWYQYHSLDVIGFLLAVVLTVAFITFKCCAYGYRKCLGKKGRVKKAHKSKTH
UniProt Q01130, sequence (whole entry, looked up): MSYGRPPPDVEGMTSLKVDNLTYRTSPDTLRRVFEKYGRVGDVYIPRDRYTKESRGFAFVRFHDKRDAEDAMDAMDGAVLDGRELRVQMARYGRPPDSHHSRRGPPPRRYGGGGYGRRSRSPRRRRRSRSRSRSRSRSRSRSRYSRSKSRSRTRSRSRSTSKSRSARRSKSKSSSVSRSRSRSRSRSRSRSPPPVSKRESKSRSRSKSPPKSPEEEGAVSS

O=CCc1ccccc1
intracellular level ratio (PC6-3; tyrosine hydroxylase inhibition, HPLC; reference: DOPAL): 2 fold

CCCCCCCCCCCCCCCCCCOCC(COP(=O)([O-])OCC[N+](C)(C)C)OC (stereo not shown)
GI50 (four leukaemia cell lines): 16800 nM

CCN1C(=O)/C(=C\c2ccc(OC)c(OC)c2)S/C1=N/N=C(\C)c1ccccn1
inhibition (HEp-2; cell growth or viability, SRB; 100 µg/mL, 48 h): 62.5%

C#C[C@@]1(O)[C@@H](CO)O[C@@H](n2cc(Br)c3c(N)ncnc32)[C@@H]1O
GI50 (NCI-H460; cell growth or viability, SRB; 48 h): 34 nM

C[C@@H]1C[C@H]2[C@@H]3CCC4=CC(=O)C=C[C@]4(C)[C@@]3(F)[C@@H](O)C[C@]2(C)[C@@]1(O)C(=O)CO
mRNA level (iPSC-derived intestinal progenitor cells; refers to: villin 1; concentration not given; reference: DMSO): increased

CC(C)CN(C(=O)c1cccnc1)c1c2ccccc2c(=O)n2c1[nH]c1ccccc12
GI50 (SW-620; cell growth or viability, MTT): ~20000 nM

Oc1ccc(-c2nc(-c3ccncc3)c(-c3ccc(F)cc3)[nH]2)cc1
mRNA level (iPSC-derived intestinal progenitor cells; refers to: villin 1; concentration not given; reference: DMSO): increased

N#Cc1ccc(-c2csc(NN=Cc3c(F)c(F)c(F)c(F)c3F)n2)cc1
inhibition (HCT-116; colony formation; 5 µM, 24 h): 5 to 50%

[dA]VIA (D-Ala1)
cell viability (PC-12; protection from Aβ1–42 toxicity, MTT; concentration not given, 6 h, Aβ to peptide ratio 1:10, with: Aβ1–42 2 µM; reference: untreated cells): 70%

Cc1ccc(/C=N/NC(=O)c2ccccc2Oc2ccccc2)o1
therapeutic window (NIH3T3 in HEY/NIH microtissues; fibroblast toxicity; chronic toxicity, unit not given; reference: AC50 ATP over AC50 NanoLUC, day 7): 0.126

GAATGAACTTGCTGACCCTCTGCTTTC (dsDNA)
Ki (T1, NR1I2/RXRA (Homo sapiens); fluorescence anisotropy competition; double-stranded DNA, one strand shown; with: DR3 FAM): 87.2 ± 4.5 nM

[Aib][Aib]IA (Aib = CC(C)(N)C(=O)O)
cell viability (PC-12; protection from Aβ1–42 toxicity, MTT; concentration not given, 6 h, Aβ to peptide ratio 1:1, with: Aβ1–42 2 µM; reference: untreated cells): 73.9%

AKERLEAKHRERMSQVM
growth-promoting activity (A-1 fibroblasts; cell number increase; peptide; concentration not given, 3 d, 10% FCS; reference: basal increase): active

GAGUUGAGUUGAGUUGAGUUGAGUUGAGUUGAGUUGAGUUGAGUUGAGUUGAGUU (ssRNA; single strand)
Kd (mtrB full length assumed K37A (Bacillus subtilis, UniProt P19466); filter binding; with: L-tryptophan 1 mM): 130 ± 20 nM

COC(=O)[C@]12CCC(C)(C)C[C@H]1[C@H]1C(=O)C=C3[C@@]4(C)C=C(C#N)C(=O)C(C)(C)[C@@H]4CC[C@@]3(C)[C@]1(C)CC2
therapeutic window (NIH3T3 in HEY/NIH microtissues; fibroblast toxicity; 168 h, chronic toxicity, unit not given; reference: AC50 ATP over AC50 NanoLUC, day 7): 0.12

C/C(=N\N=c1/[nH]c(C)cs1)c1ccccn1
inhibition (HEp-2; cell growth or viability, SRB; 100 µg/mL, 48 h): 70.8%

CC(=O)O[C@@]12CO[C@@H]1C[C@H](O)[C@@]1(C)C(=O)[C@H](O)C3=C(C)[C@@H](OC(=O)[C@H](O)[C@@H](NC(=O)OC(C)(C)C)c4ccccc4)C[C@@](O)([C@@H](OC(=O)c4ccccc4)[C@H]21)C3(C)C
GRPR mRNA level (T47D; RT-qPCR; IC50 concentration, 72 h plus 24 h recovery; reference: untreated): 99.5 ± 2.95%

CCc1ccc(C=C2SC(=S)NC2=O)cc1
VEGF-A165b/VEGF-A165a ratio (human podocytes; RT-PCR or Western blot, refers to: VEGF-A165b and VEGF-A165a; high glucose (diabetic); 10 µM, 48 h): 5.75

CC[C@H](C)[C@H](NC(=O)[C@H](NC(=O)[C@@H](N)C(C)C)C(C)C)C(=O)N[C@@H](C)C(N)=O
viability (PC-12; Aβ42-induced neurotoxicity, inhibitor, MTT; concentration not given, 6 h, 37 °C, peptide to Aβ42 1:2, with: Aβ42 2 µM; reference: untreated cells): 75.2%

COc1ccc(/C=C2/S/C(=N/N=C(\C)c3ccccn3)NC2=O)cc1OC
inhibition (HEp-2; cell growth or viability, SRB; 100 µg/mL, 48 h): 71.5%

CNCc1ccc(-c2[nH]c3cc(F)cc4c3c2CCNC4=O)cc1
Km (SW-620; cellular uptake; 30 min): 8.4 ± 1.2 µM

Cc1ccc(-n2c(SCC(=O)NNC(=O)Nc3ccccc3)nc3ccccc3c2=O)cc1
early apoptotic cells (HCT-116; annexin V-FITC/PI flow cytometry; concentration not given, 24 h): 26.3%

Cc1ccc(C(=O)Nc2ccc(CN3CCN(C)CC3)c(C(F)(F)F)c2)cc1C#Cc1cnc2cccnn12
GI50 (K562 K562-T315I; 48 h): ~2.79 nM

GCTGAATGAACTTGCTGACCCTCTGCT (dsDNA)
Ki (T1, NR1I2/RXRA (Homo sapiens); fluorescence anisotropy competition; double-stranded DNA, one strand shown; with: DR3 FAM): 98 ± 4.9 nM

O=C(Nc1ccc([N+](=O)[O-])cc1Cl)c1cc(Cl)ccc1O
therapeutic window (NIH3T3 in HEY/NIH microtissues; fibroblast toxicity; 168 h, chronic toxicity, unit not given; reference: AC50 ATP over AC50 NanoLUC, day 7): 0.329

Insulin human
concentration (ELISA; rat, hippocampus; intranasal, 20 µg per nostril, 360 min): 11.8 ± 4.5 pg/mg tissue

cholecystokinin octapeptide
remaining activity (PKCθ rat; kinase activity; 10 nM, immunoprecipitated enzyme, with: histone H1 substrate; reference: untreated): 142 ± 4%

O=c1[nH]c2ccccc2nc1/C=C/c1ccc(F)cc1
IC50 (NCI-H460; cell growth or viability, MTT; 72 h): 37400 nM

VV[dL]A (D-Leu3)
cell viability (PC-12; protection from Aβ1–42 toxicity, MTT; concentration not given, 6 h, Aβ to peptide ratio 1:1, with: Aβ1–42 2 µM; reference: untreated cells): 70%

C[C@@H]1C[C@H]2[C@@H]3CCC4=CC(=O)C=C[C@]4(C)[C@@]3(F)[C@@H](O)C[C@]2(C)[C@@]1(O)C(=O)CO
COX-2 mRNA level (A549 cells, GR knockdown; concentration not given, 24 h, weaker than with normal GR, with: TNF-α 20 ng/mL): decreased

C=CC(=O)Nc1cc2c(Nc3ccc(F)c(Cl)c3)ncnc2cc1C#CC(C)(C)N1CCN(C)CC1
therapeutic window (NIH3T3 in SKOV/NIH microtissues; fibroblast toxicity; chronic toxicity, unit not given; reference: AC50 ATP over AC50 NanoLUC, day 7): 28.4

VV[dI]A (D-Ile3)
cell viability (PC-12; protection from Aβ1–42 toxicity, MTT; concentration not given, 6 h, Aβ to peptide ratio 1:1, with: Aβ1–42 2 µM; reference: untreated cells): 70%

COc1ccc(Cl)cc1C(=O)NCCc1ccc(S(=O)(=O)NC(=O)NC2CCCCC2)cc1
active force (hiPSC-derived 3D engineered cardiac tissue; contractility; serum-free medium; concentration not given, 15 min, paced at 1 Hz; reference: time-matched vehicle): no effect

V[dL]IA (D-Leu2)
cell viability (PC-12; protection from Aβ1–42 toxicity, MTT; concentration not given, 6 h, Aβ to peptide ratio 1:1, with: Aβ1–42 2 µM; reference: untreated cells): 71.5%

Cc1ccc(/C=C/[C@]2(O)CC[C@H]3[C@@H]4CCc5cc(O)ccc5[C@H]4CC[C@@]32C)cc1
relative stimulatory activity (Ishikawa; alkaline phosphatase induction, agonist; concentration not given, 3 d; reference: estradiol): 5.5 ± 0.7%

Cc1ccc(-c2ncn(-c3ccc(Nc4nccc(-c5cccc(N6CCOCC6)c5)n4)cc3)n2)cn1
therapeutic window (NIH3T3 in SKOV/NIH microtissues; fibroblast toxicity; chronic toxicity, unit not given; reference: AC50 ATP over AC50 NanoLUC, day 7): 3.69

CCOc1ccccc1OCCN[C@H](C)Cc1ccc(OC)c(S(N)(=O)=O)c1
active force (hiPSC-derived 3D engineered cardiac tissue; contractility; serum-free medium; concentration not given, 15 min, paced at 1 Hz; reference: time-matched vehicle): decreased

VV[dV]A (D-Val3)
cell viability (PC-12; protection from Aβ1–42 toxicity, MTT; concentration not given, 6 h, Aβ to peptide ratio 1:10, with: Aβ1–42 2 µM; reference: untreated cells): 70%

CCN1C(=O)/C(=C\c2ccc(Cl)cc2)S/C1=N/N=C(\C)c1ccccn1
inhibition (HEp-2; cell growth or viability, SRB; 100 µg/mL, 48 h): 67.2%

CC[C@H](C)C(=O)O[C@H]1C[C@H](O)C=C2C=C[C@H](C)[C@H](CC[C@@H](O)C[C@@H](O)CC(=O)O)[C@H]21
active force (hiPSC-derived 3D engineered cardiac tissue; contractility; serum-free medium; concentration not given, 15 min, paced at 1 Hz; reference: time-matched vehicle): no effect

V[dI]IA (D-Ile2)
cell viability (PC-12; protection from Aβ1–42 toxicity, MTT; concentration not given, 6 h, Aβ to peptide ratio 1:1, with: Aβ1–42 2 µM; reference: untreated cells): 76%

CSTSCG
adherent cells (B16-F10; peptide; 2 µg coated per well, 30 to 60 min; reference: thrombospondin-coated wells): 37%

Ac-DNCQYVYNV-NH2 (N-acetyl, C-amide)
inhibition (mouse neutrophil elastase; enzyme activity; peptide, neutrophil lysate; 1.25 or 2.5 mM, pH 8.0, 37 °C): inhibited

B1 (UGT1A9)
Vmax/Km (O=c1c(O)c(-c2cccc(O)c2)oc2ccccc12; steady-state kinetics; pH 7.4, 37 °C): 29000 µL/min/mg

[dL]VIA (D-Leu1)
cell viability (PC-12; protection from Aβ1–42 toxicity, MTT; concentration not given, 6 h, Aβ to peptide ratio 1:5, with: Aβ1–42 2 µM; reference: untreated cells): 70%

UUUCAGCUCCGGUCACGCUC (ssRNA)
Ki (SRSF2 full length assumed (Homo sapiens, UniProt Q01130); NanoBRET competition; HEK293; apparent, permeabilized cells, not purified): 322 nM
